# Experimental data collected from several papers.
# A part holds a random share of what one study measured. Several values in a cell are separate wells, animals, samples, runs or records.

# Study 1
# Structure (SMILES): Cc1ncsc1-c1ccc(C(CO)NC(=O)C2CC(O)CN2C(=O)C(C(C)C)n2cc(-c3ccc(COc4c(-c5c(C)c(F)cc6[nH]ncc56)c(C5CC5)cc5c(N6CC7CC6CN7)nc(OC6CCOCC6)nc45)cc3)nn2)cc1 (stereo not drawn)
# Time: 6 days
cell line,test,setting,scale,viability
ASPC1,"cell growth or viability, ATP luminescence",30 nM,,49.1% and 61.6% and 57.4% and 48.9%
ASPC1,"cell growth or viability, ATP luminescence",1 nM,,104% and 79.3% and 88.6% and 74.5%
AsPC-1,CellTiter-Glo,100 nM,relative to: DMSO,7.81% and 10.1% and 9.81%
PK-59,"cell growth or viability, ATP luminescence",30 nM,,39.3% and 45.5% and 37.3% and 25.4%
GP5d,"cell growth or viability, ATP luminescence",3 µM,,39% and 36.7% and 33.2% and 25.5%
PK-59,"cell growth or viability, ATP luminescence",300 pM,,98.9% and 97.8% and 112% and 105%
LCLC-97TM1,"cell growth or viability, ATP luminescence",0.3 µM,,81.9% and 84.6% and 74.7% and 80.9%

# Study 2
# SMILES: CN1CCC[C@H]1COc1nc2c(c(N3CCN(C(=O)C(F)(F)F)[C@@H](CC#N)C3)n1)CCN(c1cccc3cccc(Cl)c13)C2
# Observed: binding
# Action: competitor
# Method: NanoBRET
# Cells: HEK293
# KRAS Q61H: GTPase KRas (KRAS, Homo sapiens, UniProt P01116, Q61H)
# KRAS G13D: GTPase KRas (KRAS, Homo sapiens, UniProt P01116, G13D)
# KRAS Q61R: GTPase KRas (KRAS, Homo sapiens, UniProt P01116, Q61R)
# KRAS Q61L: GTPase KRas (KRAS, Homo sapiens, UniProt P01116, Q61L)
target,setting,normalized BRET
KRAS Q61H,412 nM,79.7% and 86.3% and 86% and 97.3%
KRAS G13D,137 nM,99.4% and 102% and 88.2% and 89.6%
KRAS Q61H,45.7 nM,84.5% and 89.8% and 97.6% and 98.7%
KRAS Q61R,137 nM,106% and 93.6% and 91.8%
KRAS Q61R,15.2 nM,92.9% and 99% and 104%
"GTPase KRas (KRAS, Homo sapiens, UniProt P01116, G12D)",137 nM,96.4% and 107% and 95.8%
KRAS Q61L,45.7 nM,91.6% and 91.9% and 96.9%
KRAS G13D,412 nM,99.1% and 82.4% and 97.2% and 79.9%
KRAS Q61L,412 nM,88.8% and 96% and 92.4%
KRAS Q61L,33.3 µM,23.6% and 22.4% and 27.7%

# Study 3
# SMILES: Cc1ccc(O)c(C)c1-c1cnc2[nH]c(-c3cnc(N4CCC5(CC4)CC(N4CCN(c6ccc7c(c6)C(=O)N(C6CCC(=O)NC6=O)C7=O)CC4)CO5)nc3)cc2c1C#N (mixture of isomers)
# Cell line: HCC1569
# Method: in-cell western
# Item: CDK1 phospho-Thr14
setting,pCDK1 (Thr14) level
15.63 nM,39.9 RLU and 40.9 RLU
500 nM,86.3 RLU and 92.3 RLU
250 nM,75.8 RLU and 69.2 RLU
62.50 nM,54.7 RLU and 46.4 RLU
125 nM,60.9 RLU and 64.2 RLU
3.906 nM,16.3 RLU and 17.8 RLU
7.81 nM,27.5 RLU and 22.8 RLU
31.25 nM,40.6 RLU and 45.8 RLU

# Study 4
# Compound: Cc1ccc2c(c1)OC(O)(C(=O)O)C(=O)N2Cc1ccccc1 (stereo not drawn)
# Organism: Arabidopsis thaliana
# Strain: Col-0
setting,hypocotyl length
"25 µg/mL, seed germination, repetition mean",1.82 cm
"12.5 µg/mL, seed germination, repetition mean",2.03 cm
"6.25 µg/mL, seed germination, single repetition",2.01 cm and 2.07 cm and 2.05 cm and 2.08 cm
"50 µg/mL, seed germination, single repetition",1.62 cm and 1.63 cm and 1.69 cm and 1.68 cm
"12.5 µg/mL, seed germination, single repetition",2.04 cm and 2.02 cm and 2.05 cm and 2.03 cm
"3.125 µg/mL, seed germination, repetition mean",2.08 cm
"25 µg/mL, seed germination, single repetition",1.82 cm and 1.81 cm and 1.83 cm
"50 µg/mL, seed germination, repetition mean",1.64 cm

# Repeated from above (study 3):
setting,pCDK1 (Thr14) level
62.50 nM,54.7 RLU and 46.4 RLU
15.63 nM,39.9 RLU and 40.9 RLU
250 nM,75.8 RLU and 69.2 RLU
3.906 nM,16.3 RLU and 17.8 RLU
